{"data": "Results of several laboratories", "note": "Each numbered part is a random draw from the data of one study; scales do not carry over between parts. Substitutions count along the parent as printed."}
{"data": "Block 1", "target": "Histone acetyltransferase KAT6A, winged helix 2, GST fusion (KAT6A, Homo sapiens, UniProt Q92794, residues 85-181)", "method": "protein binding microarray", "molecule type": "double-stranded DNA, one strand shown", "medium": "in vitro", "concentration": "not given", "notes": "8-mer, flanks averaged, mean of 2 arrays, mostly near background", "baseline": "not given", "direction": "higher = stronger binding", "Target sequence (chain)": "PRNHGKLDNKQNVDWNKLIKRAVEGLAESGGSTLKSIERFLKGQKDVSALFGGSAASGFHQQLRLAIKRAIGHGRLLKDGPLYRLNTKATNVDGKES"}
{"Strand": "AATTGTTG", "E-score": 0.0366}
{"Strand": "AGCAGTAA", "E-score": 0.0686}
{"Strand": "AGGGACAG", "E-score": -0.0545}
{"Strand": "CGGGTCGC", "E-score": 0.222}
{"Strand": "CCCCGAGC", "E-score": 0.0686}
{"Strand": "ATGTTGTG", "E-score": 0.0648}
{"Strand": "TCATGAGA", "E-score": -0.0761}
{"Strand": "ATTATCCA", "E-score": 0.025}
{"Strand": "CTCTAGCA", "E-score": -0.0334}
{"Strand": "ATATCCAC", "E-score": 0.0605}
{"Strand": "CCGCGCAC", "E-score": 0.188}
{"Strand": "GAGGAGTA", "E-score": -0.111}
{"Strand": "ACTACTCC", "E-score": 0.0763}
{"Strand": "AACTGATC", "E-score": -0.066}
{"Strand": "TAATGTCA", "E-score": -0.109}
{"Strand": "AACCAACA", "E-score": 0.167}
{"Strand": "AATGTCCG", "E-score": -0.0125}
{"Strand": "AGCATATA", "E-score": 0.0916}
{"Strand": "AGATTGTA", "E-score": -0.0205}
{"Strand": "ACGACGAA", "E-score": 0.0888}
{"Strand": "TTATCAAA", "E-score": 0.213}
{"Strand": "AAGTATCA", "E-score": 0.0301}
{"Strand": "AAACTTAT", "E-score": 0.0609}
{"Strand": "CTTTGCCC", "E-score": -0.0454}
{"Strand": "CCATACCA", "E-score": -0.032}
{"data": "Block 2", "target": "ABI1, truncated, D143A, DHFR fusion (Arabidopsis thaliana, UniProt P49597)", "method": "DHFR PCA, dose-response", "medium": "yeast", "notes": "Hill fit, not affinity, not high confidence", "together with": "(+)-ABA, dose series", "direction": "lower = more sensitive", "starting sequence": "PYL1, truncated, DHFR fusion (Arabidopsis thaliana, UniProt Q8VZS8); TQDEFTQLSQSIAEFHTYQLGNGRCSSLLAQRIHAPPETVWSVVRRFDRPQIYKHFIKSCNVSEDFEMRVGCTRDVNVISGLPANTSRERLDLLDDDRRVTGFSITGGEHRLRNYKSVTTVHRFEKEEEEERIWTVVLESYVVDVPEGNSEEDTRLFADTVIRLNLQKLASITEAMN"}
{"Substitution": "K54C", "ABA EC50": "38.6 µM"}
{"Substitution": "R74E", "ABA EC50": "15.7 µM"}
{"Substitution": "H110A", "ABA EC50": "96.6 µM"}
{"Substitution": "P50F", "ABA EC50": "109 µM"}
{"Substitution": "L169P", "ABA EC50": "1.85 µM"}
{"Substitution": "W41T", "ABA EC50": "0.458 µM"}
{"Substitution": "E89A", "ABA EC50": "1430 µM"}
{"Substitution": "V40G", "ABA EC50": "4.27 µM"}
{"Substitution": "L166W", "ABA EC50": "46.6 µM"}
{"Substitution": "L164P", "ABA EC50": "824 µM"}
{"Substitution": "I162R", "ABA EC50": "906 µM"}
{"data": "Block 3", "target": "RNA binding protein fox-1 homolog 2, RRM domain, GST-SBP tag (RBFOX2, Homo sapiens, UniProt O43251-10, residues 100-194)", "method": "RNA Bind-n-Seq", "molecule type": "RNA", "medium": "in vitro", "concentration": "365 nM", "notes": "natural RNA segment, single round, ends assumed", "baseline": "no-protein control", "direction": "higher = stronger binding", "all sequences stand within": "GGGAGUUCUACAGUCCGACGAUC … UGGAAUUCUCGGGUGCCAA", "Construct (chain)": "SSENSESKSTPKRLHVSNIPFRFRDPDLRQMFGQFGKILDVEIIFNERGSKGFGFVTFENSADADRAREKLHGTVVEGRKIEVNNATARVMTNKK"}
{"Strand": "GUGCCAUAGAAUGGCACAUGUCAUUGCCCACUUCUGUGUAGACAUGGUUCUGGUUUAACUAAUAUUUGUCUGUGUGCUACUAACAGAUUAUAAUAAAUUGUCAUCAGUGA", "RBNS enrichment (R)": 0.597}
{"Strand": "CAGCUCACCAGACCUGAGAAGAGAAAAGCUAUGGUGACAGAGCUGAUCUUUUUUUUUUUUUUUUUUAAAGAAGAAAAGAAAGAAACGAAAAGAAAAAGCUGAAGAAAUCA", "RBNS enrichment (R)": 0.535}
{"Strand": "CAGCCAGCUGGCUGGACACUCGAGAAAGACGGGGAAGUAAGCUACAGAAAGAUAGUCUUCAAAAACAGGUGUUUGAGAGUGAAUACUCUGUAGAAUUGUUAGUGGGGUGU", "RBNS enrichment (R)": 0.634}
{"Strand": "ACCCACCAGUGACUUGACUGCUCUGCACCUUUGCAUCUUCAGAGCUGCUGCGUCUAUCAGGAGAGCAGGAUCAGAUUAUGGUAUCCAGAUACCAGUAGAAGAAUUGGAUG", "RBNS enrichment (R)": 1.39}
{"Strand": "AGUGGUGGCGGUCACGCUAACACGUGUGAAAGGCCUUUGGCAUUUUUUAAAAAGUGCAAUCAAUAAAGCAGAGUUCUGUCAAGAAUGAGUAAGUUAACAGCCAGAGACAG", "RBNS enrichment (R)": 0.173}
{"Strand": "UAAGCUCCCCUUGGAGUUGGAGAGGUAUCGGGGACACUGCUGGUUAGUACGUUUUGAUUUUAAACAGGACCUUUGUGUGGUCAGAUCCCACAGCACUGCCUGUCCUUUUU", "RBNS enrichment (R)": 0.414}
{"Strand": "GGAGGUGUCCUGUCUUUUUAAAAUCAGUGCCAAGUGUGUCAGCAGGGGGCAUGAACAAAAACCAGUGCCUCGUUGUGCACAGUCCUCUAAAAGUAGCAUUCUUAUCUGUU", "RBNS enrichment (R)": 0.429}
{"Strand": "AUGUUGUGACAAUAUCUAUGGCCACUGUUAGCCCAUUAUGUUCAUUCCAAUUAGAAGAAAUGUGAAUACUAUAUUACGUGUUUUGAGUGACGAGUUUGGGAAAAUAAAAA", "RBNS enrichment (R)": 0.304}
{"data": "Block 4", "target": "Ras GTPase-activating protein-binding protein 1, full length (G3BP1, Homo sapiens, UniProt Q13283)", "method": "RNA Bind-n-Seq", "molecule type": "RNA", "medium": "in vitro", "concentration": "200 nM", "notes": "whole 134-nt RNA, ends assumed", "together with": "150 mM KCl", "baseline": "input library", "direction": "higher = stronger binding", "all sequences stand within": "GGGAGUUCUACAGUCCGACGAUC … UGGAAUUCUCGGGUGUCAAGG", "UniProt Q13283, sequence (whole entry, looked up)": "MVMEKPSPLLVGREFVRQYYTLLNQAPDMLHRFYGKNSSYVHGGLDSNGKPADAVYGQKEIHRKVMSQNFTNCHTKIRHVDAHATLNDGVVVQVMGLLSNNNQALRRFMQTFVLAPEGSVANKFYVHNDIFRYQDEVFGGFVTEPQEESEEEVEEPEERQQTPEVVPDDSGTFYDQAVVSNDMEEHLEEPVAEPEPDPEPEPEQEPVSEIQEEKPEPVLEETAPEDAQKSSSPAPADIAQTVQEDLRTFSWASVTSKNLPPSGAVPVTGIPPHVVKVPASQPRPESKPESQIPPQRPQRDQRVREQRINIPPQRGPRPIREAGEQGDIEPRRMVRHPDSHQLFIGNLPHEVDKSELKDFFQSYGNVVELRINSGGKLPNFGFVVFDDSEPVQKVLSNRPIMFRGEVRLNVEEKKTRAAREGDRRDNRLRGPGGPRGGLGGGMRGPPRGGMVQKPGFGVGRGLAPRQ"}
{"Strand": "UUGUGGCUGAGAGACAGUUUGCAAAGGAACAACAUACAGAUGGGACACUAAAGGAAGUUGGAGAAGAUUAUCAAAUCGCAAUCCCAGAUU", "log2 enrichment": 0.186}
{"Strand": "UCCUGUGCUACACAUCGUAUGUACCGAAUCGGGGAAAGGGGUUUUUGGGGAAAAAGGGGAAAGUAUUAUGUUACGCCGUUCGGAUCUGCA", "log2 enrichment": 0.681}
{"Strand": "CCUCAAGUCCUGUGCUACACAUCGUAUGUACCGAAUCGGGGAGGGAGGAGGGGAAAGUAUUAUGUUACGCCGUUCGGAUCUGCACUUCCA", "log2 enrichment": 1.21}
{"Strand": "UGGCCCUGGUGGCAUACGGGGAGGAAGAGGUGGCCUCAUGGAUCGUGGUGGUCCCGGUGGAAUGUUCAGAGGUGGCCGUGGUGGAGACAG", "log2 enrichment": 0.207}
{"Strand": "UCAAGUCCUGUGCUACACAUCGUAUGUACCGAAUCGGAAAGGAAAAAAAGGUGGAAAGUAUUAUGUUACGCCGUUCGGAUCUGCACUUCC", "log2 enrichment": -0.951}
{"Strand": "AGUCCUGUGCUACACAUCGUAUGUACCGAAUCGGAAAAAGGAAAAAGGGAAAAAGGGGAAAGUAUUAUGUUACGCCGUUCGGAUCUGCAC", "log2 enrichment": -0.726}
{"Strand": "CCUGUGCUACACAUCGUAUGUACCGAAUCGGAAAAAAGGGGAAAAAAGGGGAAAAAAGGGAAAGUAUUAUGUUACGCCGUUCGGAUCUGC", "log2 enrichment": -0.721}
{"Strand": "CUGUGCUACACAUCGUAUGUACCGAAUCGGAAAAAAAGGGAAAAAAAGGGGAAAAAAAGGGGAAAGUAUUAUGUUACGCCGUUCGGAUCU", "log2 enrichment": -0.69}
{"note": "For quick reference, copied from above (block 1):"}
{"Strand": "AATTGTTG", "E-score": 0.0366}
{"Strand": "AGCAGTAA", "E-score": 0.0686}
{"Strand": "AGGGACAG", "E-score": -0.0545}
{"Strand": "CGGGTCGC", "E-score": 0.222}
{"Strand": "CCCCGAGC", "E-score": 0.0686}
{"Strand": "ATGTTGTG", "E-score": 0.0648}
